Experimental data pooled from the literature.
Values joined by “and” are separate records of one study, mostly repeats; a detail may differ. ± marks the error that the study gave.
ATRX F284Y/K251R: Transcriptional regulator ATRX (ATRX, Homo sapiens, UniProt P46100, F284Y/K251R)
Nuclear receptor subfamily 2 group C member 2 ligand-binding domain: Nuclear receptor subfamily 2 group C member 2, ligand-binding domain (Homo sapiens, UniProt P49116)
Chain of UniProt P27361 (whole entry, looked up): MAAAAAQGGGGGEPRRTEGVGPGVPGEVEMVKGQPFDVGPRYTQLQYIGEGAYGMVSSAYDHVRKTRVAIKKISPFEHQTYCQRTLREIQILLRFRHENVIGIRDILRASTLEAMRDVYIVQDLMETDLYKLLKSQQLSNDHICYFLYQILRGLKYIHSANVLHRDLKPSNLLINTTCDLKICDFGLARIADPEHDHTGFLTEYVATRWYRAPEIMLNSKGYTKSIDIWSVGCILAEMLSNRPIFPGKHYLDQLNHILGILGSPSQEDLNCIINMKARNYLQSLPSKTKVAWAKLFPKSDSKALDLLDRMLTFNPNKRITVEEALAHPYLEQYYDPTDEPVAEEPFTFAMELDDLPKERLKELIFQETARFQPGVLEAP
Chain of UniProt Q64663 (whole entry, unmodified, looked up): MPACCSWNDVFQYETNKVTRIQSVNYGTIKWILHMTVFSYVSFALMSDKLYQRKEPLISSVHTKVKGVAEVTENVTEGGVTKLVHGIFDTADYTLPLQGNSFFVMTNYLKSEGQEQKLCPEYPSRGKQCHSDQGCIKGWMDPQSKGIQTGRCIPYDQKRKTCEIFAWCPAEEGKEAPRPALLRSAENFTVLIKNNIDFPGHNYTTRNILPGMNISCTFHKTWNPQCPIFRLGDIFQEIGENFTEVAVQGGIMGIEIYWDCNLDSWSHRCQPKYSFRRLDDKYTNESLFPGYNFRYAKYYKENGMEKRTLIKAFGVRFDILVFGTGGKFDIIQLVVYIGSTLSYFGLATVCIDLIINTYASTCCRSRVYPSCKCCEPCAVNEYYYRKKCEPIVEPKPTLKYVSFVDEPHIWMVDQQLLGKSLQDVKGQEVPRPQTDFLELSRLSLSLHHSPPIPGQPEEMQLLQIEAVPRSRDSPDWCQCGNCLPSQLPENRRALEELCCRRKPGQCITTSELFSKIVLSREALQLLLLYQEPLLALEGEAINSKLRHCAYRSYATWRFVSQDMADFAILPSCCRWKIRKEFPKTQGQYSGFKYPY
Chain of UniProt P49116 (whole entry, looked up): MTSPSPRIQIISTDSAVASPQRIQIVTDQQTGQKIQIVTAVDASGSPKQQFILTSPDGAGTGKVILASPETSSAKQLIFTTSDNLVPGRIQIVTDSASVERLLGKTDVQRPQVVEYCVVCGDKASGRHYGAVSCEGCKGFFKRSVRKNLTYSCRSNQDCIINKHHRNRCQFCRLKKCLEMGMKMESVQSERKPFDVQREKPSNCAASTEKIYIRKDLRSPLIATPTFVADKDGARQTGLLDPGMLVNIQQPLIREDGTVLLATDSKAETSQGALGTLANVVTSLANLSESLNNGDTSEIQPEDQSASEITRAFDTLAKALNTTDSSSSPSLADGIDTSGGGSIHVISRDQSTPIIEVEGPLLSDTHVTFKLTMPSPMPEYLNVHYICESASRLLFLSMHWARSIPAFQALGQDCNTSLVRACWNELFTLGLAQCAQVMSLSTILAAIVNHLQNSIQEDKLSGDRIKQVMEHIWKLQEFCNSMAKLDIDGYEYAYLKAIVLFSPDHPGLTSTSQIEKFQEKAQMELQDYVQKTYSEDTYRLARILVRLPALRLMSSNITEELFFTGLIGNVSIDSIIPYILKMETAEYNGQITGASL
Chain of UniProt Q16774 (whole entry, unmodified, looked up): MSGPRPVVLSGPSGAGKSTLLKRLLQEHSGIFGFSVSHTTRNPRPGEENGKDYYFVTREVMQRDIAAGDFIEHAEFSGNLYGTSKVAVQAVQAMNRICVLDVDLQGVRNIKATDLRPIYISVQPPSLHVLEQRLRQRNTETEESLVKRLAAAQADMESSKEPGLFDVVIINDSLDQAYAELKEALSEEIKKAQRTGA
Chain of UniProt P51575 (whole entry, unmodified, looked up): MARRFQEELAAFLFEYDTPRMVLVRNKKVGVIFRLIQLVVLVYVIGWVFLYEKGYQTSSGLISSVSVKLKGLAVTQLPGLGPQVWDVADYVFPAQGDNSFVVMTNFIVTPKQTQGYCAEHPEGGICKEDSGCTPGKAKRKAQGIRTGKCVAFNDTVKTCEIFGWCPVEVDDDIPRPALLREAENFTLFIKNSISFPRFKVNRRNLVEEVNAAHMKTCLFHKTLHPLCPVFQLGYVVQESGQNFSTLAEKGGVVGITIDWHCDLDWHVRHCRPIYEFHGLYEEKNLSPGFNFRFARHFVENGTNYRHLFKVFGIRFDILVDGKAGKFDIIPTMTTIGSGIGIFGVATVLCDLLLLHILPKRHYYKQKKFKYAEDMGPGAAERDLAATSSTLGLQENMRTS
Chain of UniProt P11388 (whole entry, looked up): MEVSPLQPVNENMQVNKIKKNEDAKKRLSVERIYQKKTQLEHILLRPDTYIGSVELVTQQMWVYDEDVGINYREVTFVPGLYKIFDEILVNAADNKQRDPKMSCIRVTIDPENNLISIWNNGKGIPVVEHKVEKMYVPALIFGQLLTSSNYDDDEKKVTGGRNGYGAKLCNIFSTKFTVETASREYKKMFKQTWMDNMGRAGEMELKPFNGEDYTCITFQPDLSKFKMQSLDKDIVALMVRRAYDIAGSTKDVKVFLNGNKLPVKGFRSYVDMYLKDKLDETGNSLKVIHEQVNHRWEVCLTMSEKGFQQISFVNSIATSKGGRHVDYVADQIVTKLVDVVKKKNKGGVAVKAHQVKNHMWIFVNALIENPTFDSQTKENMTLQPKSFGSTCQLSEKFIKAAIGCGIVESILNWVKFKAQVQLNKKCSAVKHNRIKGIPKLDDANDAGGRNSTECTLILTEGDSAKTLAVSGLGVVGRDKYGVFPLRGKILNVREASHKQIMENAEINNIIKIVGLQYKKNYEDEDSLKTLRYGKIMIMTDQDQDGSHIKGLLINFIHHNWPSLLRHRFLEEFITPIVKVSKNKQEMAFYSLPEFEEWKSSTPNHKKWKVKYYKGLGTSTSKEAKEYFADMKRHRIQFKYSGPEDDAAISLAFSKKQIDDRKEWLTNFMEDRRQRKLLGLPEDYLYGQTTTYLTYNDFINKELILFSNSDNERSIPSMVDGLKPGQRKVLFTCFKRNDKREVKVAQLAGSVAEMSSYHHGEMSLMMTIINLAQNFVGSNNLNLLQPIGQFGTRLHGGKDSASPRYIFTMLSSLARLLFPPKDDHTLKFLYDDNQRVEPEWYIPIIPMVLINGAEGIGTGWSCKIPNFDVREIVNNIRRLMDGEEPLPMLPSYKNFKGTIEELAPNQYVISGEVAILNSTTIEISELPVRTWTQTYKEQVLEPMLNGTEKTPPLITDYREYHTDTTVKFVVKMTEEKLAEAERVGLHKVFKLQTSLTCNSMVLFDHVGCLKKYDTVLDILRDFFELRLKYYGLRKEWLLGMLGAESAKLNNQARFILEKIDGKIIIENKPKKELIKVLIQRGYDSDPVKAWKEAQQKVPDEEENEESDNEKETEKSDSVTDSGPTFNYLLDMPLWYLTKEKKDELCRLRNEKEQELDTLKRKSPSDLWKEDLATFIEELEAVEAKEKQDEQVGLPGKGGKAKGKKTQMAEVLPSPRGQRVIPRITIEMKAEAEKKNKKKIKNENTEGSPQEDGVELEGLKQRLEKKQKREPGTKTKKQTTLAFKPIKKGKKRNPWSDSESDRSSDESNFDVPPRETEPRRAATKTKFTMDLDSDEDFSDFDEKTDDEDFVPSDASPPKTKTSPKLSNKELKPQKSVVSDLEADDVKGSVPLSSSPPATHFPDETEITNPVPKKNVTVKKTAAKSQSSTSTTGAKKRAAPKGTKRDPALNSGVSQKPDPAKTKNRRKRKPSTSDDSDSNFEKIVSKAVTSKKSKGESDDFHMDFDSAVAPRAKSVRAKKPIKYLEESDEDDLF
Chain of UniProt Q704Y3 (whole entry, unmodified, looked up): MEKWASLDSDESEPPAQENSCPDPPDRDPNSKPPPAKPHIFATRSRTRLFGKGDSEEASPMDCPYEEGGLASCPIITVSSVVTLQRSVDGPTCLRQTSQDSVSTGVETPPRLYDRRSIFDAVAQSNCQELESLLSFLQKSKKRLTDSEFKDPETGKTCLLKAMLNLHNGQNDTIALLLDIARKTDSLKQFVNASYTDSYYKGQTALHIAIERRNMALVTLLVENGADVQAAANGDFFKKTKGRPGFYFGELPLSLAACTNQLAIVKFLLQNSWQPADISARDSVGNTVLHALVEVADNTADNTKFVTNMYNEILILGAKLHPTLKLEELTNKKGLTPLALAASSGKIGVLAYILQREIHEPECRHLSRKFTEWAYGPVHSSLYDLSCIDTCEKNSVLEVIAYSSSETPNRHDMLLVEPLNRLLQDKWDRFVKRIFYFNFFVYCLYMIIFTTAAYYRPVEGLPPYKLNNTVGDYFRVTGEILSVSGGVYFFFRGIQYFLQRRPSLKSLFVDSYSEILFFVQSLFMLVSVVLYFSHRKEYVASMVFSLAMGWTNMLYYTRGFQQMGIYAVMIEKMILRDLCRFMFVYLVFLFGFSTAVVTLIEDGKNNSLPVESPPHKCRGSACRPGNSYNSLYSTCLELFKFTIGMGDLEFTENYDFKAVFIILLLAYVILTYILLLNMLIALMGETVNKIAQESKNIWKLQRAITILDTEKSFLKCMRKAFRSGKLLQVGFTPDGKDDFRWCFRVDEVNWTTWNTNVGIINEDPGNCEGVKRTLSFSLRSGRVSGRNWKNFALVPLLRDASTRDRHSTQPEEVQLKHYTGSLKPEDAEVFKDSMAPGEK
Chain of UniProt Q5NCS9 (whole entry, looked up): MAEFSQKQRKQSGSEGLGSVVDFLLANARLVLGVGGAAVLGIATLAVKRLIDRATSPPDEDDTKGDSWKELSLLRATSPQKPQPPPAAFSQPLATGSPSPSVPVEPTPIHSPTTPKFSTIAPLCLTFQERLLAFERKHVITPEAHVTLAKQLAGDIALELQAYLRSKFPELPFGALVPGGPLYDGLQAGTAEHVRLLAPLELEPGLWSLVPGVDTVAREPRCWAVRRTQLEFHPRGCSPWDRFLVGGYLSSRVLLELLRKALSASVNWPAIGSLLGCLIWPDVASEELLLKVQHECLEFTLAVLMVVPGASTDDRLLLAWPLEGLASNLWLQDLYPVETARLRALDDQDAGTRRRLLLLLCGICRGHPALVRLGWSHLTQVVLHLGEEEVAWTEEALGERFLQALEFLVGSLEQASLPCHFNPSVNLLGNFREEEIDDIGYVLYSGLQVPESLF

Nc1nc2c(ncn2[C@@H]2O[C@H](COP(=O)(O)O)[C@@H](O)[C@H]2O)c(=O)[nH]1 gave a reaction velocity of -0.0316 µM/s and 0.00628 µM/s and 0.0611 µM/s (GUK1 (Homo sapiens, UniProt Q16774); enzyme activity, NADH-coupled; 7.812 µM, with: KCl 50 mM).
O=C1c2ccccc2CCN1CCCCN1CCN(c2cccc(Cl)c2Cl)CC1 has an inhibition of 24.3% (5-hydroxytryptamine receptor 4 (HTR4, Homo sapiens, UniProt Q13639); radioligand binding; concentration not given).
With C[S+](CC[C@H](N)C(=O)[O-])C[C@H]1O[C@@H](n2cnc3c(N)ncnc32)[C@H](O)[C@@H]1O (stereo partly shown) the apparent Km was 4.3 ± 0.6 µM (Histone-lysine N-methyltransferase 2C (KMT2C, Homo sapiens, UniProt Q8NEZ4); substrate, enzyme-coupled methylation; with: H3 peptide 25 µM).
The binding entropy of C[C@H](N)C(=O)N[C@@H](CCCNC(=N)N)C(=O)N[C@H](C(=O)N[C@@H](CCCCN)C(=O)N[C@@H](CCC(N)=O)C(=O)N[C@H](C(=O)N[C@@H](C)C(=O)N[C@@H](CCCNC(=N)N)C(=O)N[C@@H](C)C(=O)N[C@@H](CO)C(=O)O)[C@@H](C)O)[C@@H](C)O is reported as 10.2 cal/mol/K (ATRX F284Y/K251R; isothermal titration calorimetry; concentration not given, pH 7.5, 25.0 °C).
With COCCOC(=O)C1=C(C)NC(C)=C(C(=O)OC(C)C)C1c1cccc([N+](=O)[O-])c1 (stereo not shown) the koff was 1.48e-06 s⁻¹ (Nuclear receptor subfamily 2 group C member 2 ligand-binding domain; SPR imaging; 600 nM).
Cc1cn(-c2cc(NC(=O)c3ccc(C)c(Nc4nccc(-c5cccnc5)n4)c3)cc(C(F)(F)F)c2)cn1 gave an activity of over 200% (Oxidized purine nucleoside triphosphate hydrolase (NUDT1, Homo sapiens, UniProt P36639); activator; 200 µM, screen).
With CN(C)CCC(c1ccc(Cl)cc1)c1ccccn1 (stereo not shown) the koff was 3.24e-07 s⁻¹ (Nuclear receptor subfamily 2 group C member 2 ligand-binding domain; SPR imaging; 600 nM).
For C[C@H](N)C(=O)N[C@@H](CCCNC(=N)N)C(=O)N[C@H](C(=O)N[C@@H](CCCCN(C)C)C(=O)N[C@@H](CCC(N)=O)C(=O)N[C@H](C(=O)N[C@@H](C)C(=O)N[C@@H](CCCNC(=N)N)C(=O)N[C@@H](CCCCN)C(=O)N[C@@H](CO)C(=O)N[C@H](C(=O)NCC(=O)NCC(=O)N[C@@H](CCCCN)C(=O)N[C@@H](C)C(=O)N[C@@H](Cc1ccc(O)cc1)C(=O)O)[C@@H](C)O)[C@@H](C)O)[C@@H](C)O, the binding entropy was 0.84 cal/mol/K (ATRX F284Y/K251R; isothermal titration calorimetry; concentration not given, pH 7.5, 25.0 °C).
Under “concentration in oligomer fraction”, CCCCCCCCCCCCCCCC(=O)SCCNC(=O)CCNC(=O)C(O)C(C)(C)COP(=O)(O)OP(=O)(O)OCC1OC(n2cnc3c(N)ncnc32)C(O)C1OP(=O)(O)O (stereo not shown) is recorded as 5.5 µM (Mitochondrial dynamics protein MID49 (Mief2, Mus musculus, UniProt Q5NCS9); reversed-phase HPLC; mouse protein, 5.3 µM in oligomer fraction).
For Nc1[nH]nc2nnc(-c3c(-c4ccccc4)nn4ccccc34)cc12, the kinase activity was 66.8% and 52.3% and 72.9% (Mitogen-activated protein kinase 3 (MAPK3, Homo sapiens, UniProt P27361); ADP-Glo; 631 nM, with: MBP substrate).
For Nc1nc2c(ncn2[C@@H]2O[C@H](COP(=O)(O)OP(=O)(O)O)[C@@H](O)[C@H]2O)c(=O)[nH]1, the ΔG was -22.7 kJ/mol (GUK1 (Homo sapiens, UniProt Q16774, R137A); binding, ITC).
For CCCCCCCC/C=C\CCCCCCCC(=O)NCCc1ccc(O)c(O)c1, the Hill coefficient was 2.54 ± 0.44 (Transient receptor potential cation channel subfamily V member 1 (Trpv1, Mus musculus, UniProt Q704Y3, S511T); ion current, agonist, whole-cell patch clamp; S511T).
The -TΔS of CC[C@H](C)[C@H](NC(=O)[C@H](CCC(=O)O)NC(=O)[C@H](CCC(=O)O)NC(=O)[C@@H]1CCCN1C(=O)[C@H](CC(=O)O)NC(=O)[C@H](C)NC(=O)[C@H](CCC(N)=O)NC(=O)[C@@H](NC(=O)[C@H](C)NC(=O)[C@@H](NC(=O)[C@H](CO)NC(=O)[C@@H](NC(=O)[C@H](CCCCN)NC(=O)[C@@H](N)Cc1ccc(O)cc1)[C@@H](C)O)C(C)C)[C@@H](C)O)C(=O)N[C@H](C(=O)N[C@H](C(=O)N[C@@H](CC(C)C)C(=O)N[C@@H](CC(=O)O)C(=O)N[C@@H](CC(=O)O)C(=O)N[C@@H](CC(=O)O)C(=O)N[C@@H](CC(=O)O)C(=O)O)C(C)C)[C@@H](C)CC is reported as -53.1 ± 2.51 kJ/mol (Small ubiquitin-related modifier 1 (Homo sapiens, UniProt P63165, C52A); isothermal titration calorimetry; pH 7.4, SUMO1 construct).
C[C@H](CCC(=O)O)[C@H]1CC[C@H]2[C@@H]3CC[C@@H]4C[C@H](O)CC[C@]4(C)[C@H]3CC[C@]12C has a koff of 1.62e-06 s⁻¹ (Nuclear receptor subfamily 2 group C member 2 ligand-binding domain; SPR imaging; 600 nM).
With COCCC(=O)N1CCC(Oc2ccccc2)C1 (stereo not shown) the fold enrichment was 0.774 (DDB1- and CUL4-associated factor 1 (DCAF1, Homo sapiens, UniProt Q9Y4B6); binding, affinity selection mass spectrometry; relative to: other proteins in batch).
The ΔG of CC[C@H](C)[C@@H]1NC(=O)[C@H](Cc2ccc(O)cc2)NC(=O)CSC[C@@H](C(N)=O)NC(=O)CNC(=O)[C@H](Cc2c[nH]cn2)NC(=O)[C@H](CCCNC(=N)N)NC(=O)[C@H](CC(N)=O)NC(=O)[C@@H]2CCCN2C(=O)[C@H](Cc2ccccc2)NC(=O)[C@H]([C@@H](C)O)NC(=O)CNC(=O)[C@H](CC(C)C)NC(=O)[C@@H]2CCCN2C(=O)[C@H]([C@@H](C)O)NC(=O)[C@H](CCCCN)NC1=O is reported as -40.17 ± 0.293 kJ/mol (VPS35/VPS29 (Homo sapiens, UniProt Q96QK1+Q9UBQ0); binding, ITC; 25 °C, heterodimer).
Under “log2 fold change”, CCN1CCC[C@H]1CNC(=O)c1c(O)c(Cl)cc(Cl)c1OC is recorded as 0.032 (G-prodeshotein coupled receptor 4 (GPR4, Homo sapiens, UniProt P46093); β-arrestin recruitment, TANGO luminescence; concentration not given; relative to: basal luminescence).
With COc1cc(-c2cncc3c2CN(C)Cc2cc(N4CCNCC4)ccc2-3)cc(OC)c1OC the remaining activity was 113% (Serine/threonine-protein kinase ICK (CILK1, Homo sapiens, UniProt Q9UPZ9); kinase activity; 1 µM, human enzyme, with: ATP 10 µM; relative to: DMSO control).
Under “SOD1 monomer fraction”, [O-][S+]1CCCCS1 (stereo not shown) is recorded as 99.7% (Superoxide dismutase [Cu-Zn] (SOD1, Homo sapiens, UniProt P00441, G94A); LC-MS; brain homogenate; 1 µM, 1 h, 37 °C).
CCCC[C@H]1C(=O)N(C)[C@@H](CCCC)C(=O)N[C@@H](CCCCNC(=O)CN2CCN(CC(=O)O)CCN(CC(=O)O)CC2)C(=O)N[C@H](C(=O)NCC(N)=O)CSCC(=O)N[C@@H](Cc2ccc(O)cc2)C(=O)N(C)[C@@H](C)C(=O)N[C@@H](CC(N)=O)C(=O)N2CCC[C@H]2C(=O)N[C@@H](Cc2c[nH]cn2)C(=O)N[C@@H](CCC(=O)O)C(=O)N2C[C@H](O)C[C@H]2C(=O)N[C@@H](Cc2c[nH]c3ccccc23)C(=O)N[C@@H](CO)C(=O)N[C@@H](Cc2cn(CC(=O)O)c3ccccc23)C(=O)N1C [gallium-68 labelled] gave an SUVmax of 11.8 (Programmed cell death 1 ligand 1 (CD274, Homo sapiens, UniProt Q9NZQ7); PET/CT; human, bone metastasis).
The remaining binding of C=CC(=O)N1CCC(COCC(=O)N2CCN(c3nc(-c4cnc(N)nc4C(F)F)nc(N4CCOC[C@@H]4C)n3)CC2)CC1 is reported as 97% (Epidermal growth factor receptor (EGFR, Homo sapiens, UniProt P00533, G719S); KINOMEscan; 1 µM; relative to: DMSO control).
For Nc1ncnc2c1ncn2[C@@H]1O[C@H](COP(=O)(O)CP(=O)(O)OP(=O)(O)O)[C@@H](O)[C@H]1O, the calcium influx was 7.57% and 8.04% and 16.5% (P2X purinoceptor 1 (P2RX1, Homo sapiens, UniProt P51575, K215A); calcium influx; 31.6 nM; relative to: ionomycin response).
O=c1nc(SCc2cc(F)cc(C(F)(F)F)c2)nc(SCc2ccc3nc(Cl)ccc3c2)[nH]1 has a linear DNA of 14.9% and 14.8% (DNA topoisomerase 2-alpha (TOP2A, Homo sapiens, UniProt P11388); DNA cleavage, competition with etoposide; 15.6 µM, with: etoposide 50 µM).
N#Cc1ccn2c(-c3ccncc3)c(-c3ccc(F)cc3)nc2c1: “log2 fold change” -0.0437 (Serine/threonine-protein kinase CBK1 (CBK1, Candida albicans, UniProt Q5AP53); kinase binding, competitor, MIB/MS competition, item: CBK1; Candida albicans cell lysate; 100 nM; relative to: DMSO).
Nc1ncnc2c1ncn2[C@@H]1O[C@H](COP(=O)(O)OP(=O)(O)OP(=O)(O)O)[C@@H](O)[C@H]1O has a normalized current of 1 and 0.95 and 0.93 (P2X purinoceptor 7 (P2rx7, Rattus norvegicus, UniProt Q64663); ion current, two-electrode voltage clamp; Xenopus laevis oocytes; 333 µM).
The remaining binding of C[C@@H](c1ccc(-n2cnc3c(N)ncnc32)cc1)N1CCc2nn(C)c(Cc3ccccc3)c2C1=O is reported as 97% (Epidermal growth factor receptor (EGFR, Homo sapiens, UniProt P00533, L858R/T790M); KINOMEscan; 0.1 µM; relative to: DMSO control).
C[C@H](CCC(=O)O)[C@H]1CC[C@H]2[C@@H]3[C@H](O)C[C@@H]4C[C@H](O)CC[C@]4(C)[C@H]3CC[C@]12C has a koff of 3.12e-08 s⁻¹ (Nuclear receptor subfamily 2 group C member 2 ligand-binding domain; SPR imaging; 600 nM).
With CC[C@H](C)[C@@H]1NC(=O)[C@H](C)NC(=O)[C@H]([C@@H](C)CC)NC(=O)[C@H](CCC(N)=O)NC(=O)[C@H](C)NC(=O)[C@H](CCCNC(=N)N)NC(=O)[C@H](C(C)C)NC(=O)[C@H](CC(C)C)NC(=O)[C@H](CCC(=O)O)NC(=O)[C@H](CCCNC(=N)N)NC(=O)CNC(=O)[C@@H](NC(=O)[C@H](CC(C)C)NC(=O)[C@H](CCCCN)NC(=O)[C@@H](NC(=O)[C@@H](NC(=O)[C@H](CCC(=O)O)NC(=O)[C@H](CCC(=O)O)NC(=O)[C@H](CCSC)NC(=O)[C@H](Cc2c[nH]c3ccccc23)NC(=O)[C@H](CO)NC(=O)[C@@H](N)CC(=O)O)C(C)C)[C@@H](C)CC)CSSC[C@@H]2NC(=O)[C@@H](NC(=O)[C@H](CCCCN)NC(=O)[C@H](CC(N)=O)NC(=O)[C@H](C)NC(=O)[C@H](CC(C)C)NC(=O)[C@H](C)NC(=O)[C@H](CO)NC(=O)[C@H](Cc3ccc(O)cc3)NC(=O)[C@H](CC(C)C)NC(=O)[C@H](CCC(N)=O)NC(=O)c3ccc(-c4c5ccc(=[N+](C)C)cc-5oc5cc(N(C)C)ccc45)c(C(=O)[O-])c3)CSSC[C@H](NC(=O)CNC(=O)[C@H](C(C)C)NC(=O)[C@H](Cc3c[nH]cn3)NC2=O)C(=O)N[C@@H]([C@@H](C)O)C(=O)N[C@@H](CCCCN)C(=O)N[C@@H](CCCNC(=N)N)C(=O)N[C@@H](CO)C(=O)N[C@@H](CC(C)C)C(=O)N[C@@H](C)C(=O)N[C@@H](CCCNC(=N)N)C(=O)N[C@@H](Cc2ccccc2)C(=O)N[C@H](C(=O)O)CSSC[C@@H](C(=O)NCC(=O)N[C@@H](CCSC)C(=O)N[C@@H](CO)C(=O)N[C@H](C(=O)N[C@@H](Cc2c[nH]c3ccccc23)C(=O)N[C@@H](CO)C(=O)O)[C@@H](C)O)NC1=O the dissociation plateau was 23.9% (Relaxin receptor 1 (RXFP1, Homo sapiens, UniProt Q9HBX9); binding, NanoBRET; with: relaxin 10 nM).

Excerpt of the above:
With COCCOC(=O)C1=C(C)NC(C)=C(C(=O)OC(C)C)C1c1cccc([N+](=O)[O-])c1 (stereo not shown) the koff was 1.48e-06 s⁻¹ (Nuclear receptor subfamily 2 group C member 2 ligand-binding domain; SPR imaging; 600 nM).
Cc1cn(-c2cc(NC(=O)c3ccc(C)c(Nc4nccc(-c5cccnc5)n4)c3)cc(C(F)(F)F)c2)cn1 gave an activity of over 200% (Oxidized purine nucleoside triphosphate hydrolase (NUDT1, Homo sapiens, UniProt P36639); activator; 200 µM, screen).
